Experimental data collected from several papers.
Every numbered part comes from another study and shows a few of its results, in no order. Positions count from the first letter of the parent shown.

Sample 1 — target: ATF7, bZIP domain (human); technique: DHFR protein complementation; medium: yeast; baseline: wild-type JUN-FOS pair; direction: higher = stronger binding
Notes: single substitutions, most at no-binding floor
Starting sequence: JUN, bZIP domain (human); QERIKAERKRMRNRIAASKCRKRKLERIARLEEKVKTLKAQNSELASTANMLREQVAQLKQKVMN; partner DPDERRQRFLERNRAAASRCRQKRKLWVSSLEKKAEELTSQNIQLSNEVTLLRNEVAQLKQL
| Substitution | binding fitness [natural log] |
| --- | --- |
| L52Y | -1.41 |
| E32C | -0.971 |
| T48E | -0.773 |
| L52C | -1.53 |
| T37K | -0.921 |
| V35L | -1.29 |
| S47T | -0.895 |
| V56F | -1.38 |
| E44H | -1.06 |
| S43N | -0.842 |
| K39T | -0.756 |
| K39N | -1.03 |
| S47E | -0.615 |
| L31T | -1.4 |
| V56P | -1.5 |
| K34P | -1.46 |
| Q41M | -1.01 |
| V56R | -1.24 |
| A46Q | -0.708 |
| S47F | -0.962 |

Sample 2 — target: CCNE2, cyclin fold, Cln2 fusion (human); technique: yeast growth competition, sequencing; medium: yeast; notes: strong parent motif; baseline: not given; direction: higher = stronger binding
Starting sequence: CDKN1B docking peptide (human); PSACRNLFGPVDH; partner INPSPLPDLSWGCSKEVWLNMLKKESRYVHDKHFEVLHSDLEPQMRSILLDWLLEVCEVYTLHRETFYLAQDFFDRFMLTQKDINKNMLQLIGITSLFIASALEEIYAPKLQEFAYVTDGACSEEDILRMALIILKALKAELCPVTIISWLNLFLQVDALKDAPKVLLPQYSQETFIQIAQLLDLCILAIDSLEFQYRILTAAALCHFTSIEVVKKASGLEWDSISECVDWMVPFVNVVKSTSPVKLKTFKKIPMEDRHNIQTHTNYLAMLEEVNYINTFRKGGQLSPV
| Substitution | normalised enrichment score |
| --- | --- |
| V11D | 0.839 |
| P10E | 1.2 |
| P10Q | 1.43 |
| G9V | 0.461 |
| G9E | 0.534 |
| D12Q | 1.7 |
| A3E | 0.637 |
| L7H | 0.25 |
| N6W | 1.12 |
| V11P | 1.02 |
| R5Q | -0.398 |
| D12W | 1.7 |
| G9Q | 0.669 |
| V11M | 1.35 |
| H13T | 1.05 |
| H13C | 1.04 |
| N6F | 0.391 |
| S2I | 0.335 |
| H13M | 1.4 |
| A3H | 2.7 |
| H13K | 1.77 |
| V11Y | 1.69 |
| F8T | 0.187 |
| R5E | 0.417 |
| D12V | 1.53 |

Sample 3 — technique: protein binding microarray; molecule type: double-stranded DNA, one strand shown; medium: in vitro; concentration: not given; baseline: not given; direction: higher = stronger binding
Target: Histone acetyltransferase KAT6A, winged helix 1, GST fusion (KAT6A, Homo sapiens, UniProt Q92794, residues 1-85)
Notes: 8-mer, flanks averaged, mean of 2 arrays, mostly near background
Construct (chain): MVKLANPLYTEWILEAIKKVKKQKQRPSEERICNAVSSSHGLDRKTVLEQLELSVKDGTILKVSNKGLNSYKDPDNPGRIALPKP
| Oligonucleotide | E-score |
| --- | --- |
| AAGAGCGG | 0.281 |
| AACCGAGT | -0.0174 |
| CGCACGAG | 0.169 |
| GTGTCAAA | -0.242 |
| GACAGGGA | -0.125 |
| CTGGACTC | -0.319 |
| AAGATGTG | -0.231 |
| AAGACCCT | -0.203 |
| GCGCACCC | 0.382 |
| ATTAGTCC | 0.0385 |
| GCATCCTA | -0.0326 |
| ATGCCCGC | 0.379 |
| GTGGTACA | -0.127 |
| TATGTACA | -0.109 |
| ACCACTCG | -0.0227 |
| ATTAACTA | -0.126 |
| GCATTAGC | 0.101 |
| CGCATACG | 0.319 |
| AGTTTACA | -0.192 |
| CGGACTTC | 0.199 |
| CTGCAGAA | -0.113 |
| ACTGGACC | 0.00885 |
| ACCGTCGG | 0.459 |
| AGGATTAG | -0.201 |
| CCAATTCA | -0.205 |

Sample 4 — technique: competition protein-binding microarray; molecule type: double-stranded DNA, one strand shown; medium: in vitro; concentration: 2 µM; added: Cbf1 competitor, 0.05 µM; direction: higher = stronger binding
Target: Phosphate system positive regulatory protein PHO4, full length, GST-tagged (PHO4, Saccharomyces cerevisiae, UniProt P07270, residues 1-312)
Notes: whole 60-bp probe, lowest competitor level
Construct (chain): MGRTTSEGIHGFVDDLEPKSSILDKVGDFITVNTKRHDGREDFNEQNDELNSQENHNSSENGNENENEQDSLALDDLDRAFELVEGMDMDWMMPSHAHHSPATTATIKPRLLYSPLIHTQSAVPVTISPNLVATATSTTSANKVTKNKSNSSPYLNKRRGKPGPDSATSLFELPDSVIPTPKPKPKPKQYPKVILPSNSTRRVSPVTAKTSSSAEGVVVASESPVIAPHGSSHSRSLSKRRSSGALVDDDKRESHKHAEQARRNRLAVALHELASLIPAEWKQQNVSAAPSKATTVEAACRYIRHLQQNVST
| Oligonucleotide | fluorescence intensity [a.u.] |
| --- | --- |
| CTAACGAAGGTTTGGTTCGTGGGTGACAAGCCAAGTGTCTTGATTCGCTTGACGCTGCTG | 6470 |
| AAGTTCCTACCACAACGCGTGTGAATGATCTTGTACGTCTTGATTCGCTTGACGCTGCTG | 9540 |
| CTTGCGTTAGCTATTTTCGTGCGATTTGTTTGTTCCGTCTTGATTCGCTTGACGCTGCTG | 4830 |
| AATTGGCTTGAAGGAAACGTGAGAACCATTAACACAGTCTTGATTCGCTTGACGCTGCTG | 9250 |
| CTTCTGTAAATTTGGCTTGTGGGTGGACGCGCCCCGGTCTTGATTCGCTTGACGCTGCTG | 5220 |
| CTACGCCATCGTTAGCACGCAGAATATTACTTTTTCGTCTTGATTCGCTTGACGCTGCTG | 7610 |
| AAAGCGGTAATTTGCGTAGTGGGTGCAGATATCTATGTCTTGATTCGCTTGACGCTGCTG | 4340 |
| GAGCGAGACTGCCAACACGTGCACACTCCGTCCAGAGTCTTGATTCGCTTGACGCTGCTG | 18900 |
| GCTAATGTAATATAATCCGTGATGGTTTAATGGTCAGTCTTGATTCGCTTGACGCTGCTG | 4210 |
| ATTTTTCAATATTTTCACATGTGTGTCAATTTCTGCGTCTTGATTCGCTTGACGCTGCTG | 8670 |
| GTCTTGTCTCATTGTCACGTAACTTTCCCCACTTCAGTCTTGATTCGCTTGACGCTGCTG | 4690 |
| GCCCAGGAGTTCTGGCACGTTGTTTTGAGGCTAAGTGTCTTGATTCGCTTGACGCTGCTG | 12800 |
| ACTTTTTGTGGGGTAAACGTGGATTAAACGAATCTCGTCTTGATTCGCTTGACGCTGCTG | 12600 |
| CATACCCAACCTTTTCACGTGAATTAAGATATTTGTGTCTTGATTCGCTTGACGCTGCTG | 11800 |
| AAATTACTAAGTTGTCACTATACTTACCCCGTATGAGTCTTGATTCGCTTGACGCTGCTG | 3630 |
| TGAGTTGTCTTCCATGTCGTGCTTTGTAATTCCTCAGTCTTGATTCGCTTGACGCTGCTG | 6620 |
| CTTCTGTAAATTTGAGAAGTGGGTGGACGCGCCCCGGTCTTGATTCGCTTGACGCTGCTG | 3650 |
| CCGGGGGCATATTGACGCGTGGAAGAATAGAAGTCCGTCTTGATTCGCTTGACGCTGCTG | 9350 |
| CCCAAAGGGATGGGATACATGACAACAACAAGCAAGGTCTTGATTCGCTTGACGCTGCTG | 4330 |
| CTGCTGCTGGTCTTGGCCGTGACGGGTGATACGAGTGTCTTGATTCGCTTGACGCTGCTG | 5080 |
| GGCAGCCTTTTCCATCTCGTGAAATGTTTCAGCCTTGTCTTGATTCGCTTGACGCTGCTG | 3620 |
| CGGGGTTAAGTTTGGACAGTGGGTGGCTTGCAGCAGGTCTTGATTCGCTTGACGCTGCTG | 4640 |
| CTTTCCCGATCTTGACCTGTGGGTGTAGCACATTTGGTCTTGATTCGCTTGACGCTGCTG | 4520 |
| TCTCCACTCTTCCTCCACGTGGCCGTACTTTCCCCGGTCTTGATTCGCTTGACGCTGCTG | 20200 |
| GCAAGACCTAAAAAATTCGTGCCAGGGTTTGAGCTAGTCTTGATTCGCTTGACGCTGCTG | 4320 |

Sample 5 — technique: DHFR PCA, deep sequencing; medium: yeast; added: (+)-ABA 17 µM; baseline: wild-type fitted maximum; direction: higher = stronger binding
Target: ABI1, truncated, D143A, DHFR fusion (Arabidopsis thaliana)
Notes: methotrexate growth selection, single substitutions
Starting sequence: PYL1, truncated, DHFR fusion (Arabidopsis thaliana); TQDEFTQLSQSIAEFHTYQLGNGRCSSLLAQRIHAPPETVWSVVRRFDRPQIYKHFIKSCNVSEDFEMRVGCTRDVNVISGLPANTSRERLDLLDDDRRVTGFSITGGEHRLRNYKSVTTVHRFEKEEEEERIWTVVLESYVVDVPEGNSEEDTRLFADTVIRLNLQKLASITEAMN
| Substitution | relative binding score |
| --- | --- |
| Q10I | 52% |
| L164C | 84.4% |
| V62D | 8.3% |
| R24S | 73.5% |
| E14H | 56.4% |
| T135Y | -6.74% |
| A84R | -3.13% |
| E4C | 72.3% |
| R123M | 77.9% |
| V143R | -3.9% |
| E129S | 93.7% |
| S171C | 82.2% |
| H110I | -20.2% |
| D48V | -4.83% |
| T106I | 117% |
| Y53T | 1.44% |

A few entries again (sample 2):
| Substitution | normalised enrichment score |
| --- | --- |
| H13M | 1.4 |
| A3H | 2.7 |
| F8T | 0.187 |
| N6F | 0.391 |
| S2I | 0.335 |
| P10E | 1.2 |
| H13C | 1.04 |
| D12Q | 1.7 |
| V11Y | 1.69 |
| G9V | 0.461 |
| D12V | 1.53 |
| G9Q | 0.669 |
| H13K | 1.77 |
| D12W | 1.7 |
| L7H | 0.25 |
| H13T | 1.05 |
| R5E | 0.417 |
